Results from different studies.
± gives the spread as reported.
Sequence of UniProt A0A1C3KYI2 (whole entry, looked up): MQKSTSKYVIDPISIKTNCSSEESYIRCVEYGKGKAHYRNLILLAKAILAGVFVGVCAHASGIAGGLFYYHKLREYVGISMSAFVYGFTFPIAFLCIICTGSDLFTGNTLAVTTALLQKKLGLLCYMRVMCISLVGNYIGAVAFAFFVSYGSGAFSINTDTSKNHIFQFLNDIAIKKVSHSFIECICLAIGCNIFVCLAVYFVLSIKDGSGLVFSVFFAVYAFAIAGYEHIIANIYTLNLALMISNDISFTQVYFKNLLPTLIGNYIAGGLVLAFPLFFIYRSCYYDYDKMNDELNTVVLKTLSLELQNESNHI
Sequence of UniProt Q03111 (whole entry, looked up): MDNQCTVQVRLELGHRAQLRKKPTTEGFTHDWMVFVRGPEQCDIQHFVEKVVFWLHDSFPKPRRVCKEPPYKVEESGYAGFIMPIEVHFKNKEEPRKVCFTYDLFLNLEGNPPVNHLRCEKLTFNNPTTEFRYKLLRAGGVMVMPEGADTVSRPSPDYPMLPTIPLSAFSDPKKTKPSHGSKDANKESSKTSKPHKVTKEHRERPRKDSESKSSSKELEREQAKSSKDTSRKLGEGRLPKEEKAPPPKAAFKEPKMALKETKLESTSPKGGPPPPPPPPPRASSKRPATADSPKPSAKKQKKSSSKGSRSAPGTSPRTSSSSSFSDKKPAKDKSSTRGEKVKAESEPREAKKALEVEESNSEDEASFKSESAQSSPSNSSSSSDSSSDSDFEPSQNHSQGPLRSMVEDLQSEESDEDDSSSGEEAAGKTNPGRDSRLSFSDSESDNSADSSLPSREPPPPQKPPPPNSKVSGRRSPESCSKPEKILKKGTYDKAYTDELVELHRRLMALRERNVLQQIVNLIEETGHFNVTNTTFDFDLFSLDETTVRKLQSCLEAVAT
Sequence of UniProt P97612 (whole entry, looked up): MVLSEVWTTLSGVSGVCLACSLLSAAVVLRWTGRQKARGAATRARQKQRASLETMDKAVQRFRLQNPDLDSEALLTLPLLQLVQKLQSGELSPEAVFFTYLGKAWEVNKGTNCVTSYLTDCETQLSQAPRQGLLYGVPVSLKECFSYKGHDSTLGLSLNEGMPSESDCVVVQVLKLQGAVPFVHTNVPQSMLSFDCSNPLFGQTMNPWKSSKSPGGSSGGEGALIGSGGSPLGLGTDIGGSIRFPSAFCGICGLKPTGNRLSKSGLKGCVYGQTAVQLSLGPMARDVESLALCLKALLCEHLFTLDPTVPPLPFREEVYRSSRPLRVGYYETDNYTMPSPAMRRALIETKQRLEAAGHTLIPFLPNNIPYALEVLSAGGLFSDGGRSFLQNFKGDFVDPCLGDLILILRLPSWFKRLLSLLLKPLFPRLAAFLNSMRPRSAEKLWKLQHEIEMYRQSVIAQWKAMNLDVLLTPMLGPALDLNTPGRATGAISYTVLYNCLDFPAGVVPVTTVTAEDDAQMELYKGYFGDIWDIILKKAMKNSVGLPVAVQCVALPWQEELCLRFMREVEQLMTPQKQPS
Sequence of UniProt Q96RJ0 (whole entry, looked up): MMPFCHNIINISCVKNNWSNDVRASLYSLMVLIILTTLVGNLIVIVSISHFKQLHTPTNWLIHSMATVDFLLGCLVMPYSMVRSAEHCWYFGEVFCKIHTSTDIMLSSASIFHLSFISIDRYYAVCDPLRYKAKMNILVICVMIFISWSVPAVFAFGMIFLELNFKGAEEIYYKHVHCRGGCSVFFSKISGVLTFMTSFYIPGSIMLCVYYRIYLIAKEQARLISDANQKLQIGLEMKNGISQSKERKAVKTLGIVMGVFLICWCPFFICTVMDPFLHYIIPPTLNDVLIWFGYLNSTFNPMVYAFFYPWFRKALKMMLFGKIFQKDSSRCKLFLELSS
Sequence of UniProt Q13936 (whole entry, looked up): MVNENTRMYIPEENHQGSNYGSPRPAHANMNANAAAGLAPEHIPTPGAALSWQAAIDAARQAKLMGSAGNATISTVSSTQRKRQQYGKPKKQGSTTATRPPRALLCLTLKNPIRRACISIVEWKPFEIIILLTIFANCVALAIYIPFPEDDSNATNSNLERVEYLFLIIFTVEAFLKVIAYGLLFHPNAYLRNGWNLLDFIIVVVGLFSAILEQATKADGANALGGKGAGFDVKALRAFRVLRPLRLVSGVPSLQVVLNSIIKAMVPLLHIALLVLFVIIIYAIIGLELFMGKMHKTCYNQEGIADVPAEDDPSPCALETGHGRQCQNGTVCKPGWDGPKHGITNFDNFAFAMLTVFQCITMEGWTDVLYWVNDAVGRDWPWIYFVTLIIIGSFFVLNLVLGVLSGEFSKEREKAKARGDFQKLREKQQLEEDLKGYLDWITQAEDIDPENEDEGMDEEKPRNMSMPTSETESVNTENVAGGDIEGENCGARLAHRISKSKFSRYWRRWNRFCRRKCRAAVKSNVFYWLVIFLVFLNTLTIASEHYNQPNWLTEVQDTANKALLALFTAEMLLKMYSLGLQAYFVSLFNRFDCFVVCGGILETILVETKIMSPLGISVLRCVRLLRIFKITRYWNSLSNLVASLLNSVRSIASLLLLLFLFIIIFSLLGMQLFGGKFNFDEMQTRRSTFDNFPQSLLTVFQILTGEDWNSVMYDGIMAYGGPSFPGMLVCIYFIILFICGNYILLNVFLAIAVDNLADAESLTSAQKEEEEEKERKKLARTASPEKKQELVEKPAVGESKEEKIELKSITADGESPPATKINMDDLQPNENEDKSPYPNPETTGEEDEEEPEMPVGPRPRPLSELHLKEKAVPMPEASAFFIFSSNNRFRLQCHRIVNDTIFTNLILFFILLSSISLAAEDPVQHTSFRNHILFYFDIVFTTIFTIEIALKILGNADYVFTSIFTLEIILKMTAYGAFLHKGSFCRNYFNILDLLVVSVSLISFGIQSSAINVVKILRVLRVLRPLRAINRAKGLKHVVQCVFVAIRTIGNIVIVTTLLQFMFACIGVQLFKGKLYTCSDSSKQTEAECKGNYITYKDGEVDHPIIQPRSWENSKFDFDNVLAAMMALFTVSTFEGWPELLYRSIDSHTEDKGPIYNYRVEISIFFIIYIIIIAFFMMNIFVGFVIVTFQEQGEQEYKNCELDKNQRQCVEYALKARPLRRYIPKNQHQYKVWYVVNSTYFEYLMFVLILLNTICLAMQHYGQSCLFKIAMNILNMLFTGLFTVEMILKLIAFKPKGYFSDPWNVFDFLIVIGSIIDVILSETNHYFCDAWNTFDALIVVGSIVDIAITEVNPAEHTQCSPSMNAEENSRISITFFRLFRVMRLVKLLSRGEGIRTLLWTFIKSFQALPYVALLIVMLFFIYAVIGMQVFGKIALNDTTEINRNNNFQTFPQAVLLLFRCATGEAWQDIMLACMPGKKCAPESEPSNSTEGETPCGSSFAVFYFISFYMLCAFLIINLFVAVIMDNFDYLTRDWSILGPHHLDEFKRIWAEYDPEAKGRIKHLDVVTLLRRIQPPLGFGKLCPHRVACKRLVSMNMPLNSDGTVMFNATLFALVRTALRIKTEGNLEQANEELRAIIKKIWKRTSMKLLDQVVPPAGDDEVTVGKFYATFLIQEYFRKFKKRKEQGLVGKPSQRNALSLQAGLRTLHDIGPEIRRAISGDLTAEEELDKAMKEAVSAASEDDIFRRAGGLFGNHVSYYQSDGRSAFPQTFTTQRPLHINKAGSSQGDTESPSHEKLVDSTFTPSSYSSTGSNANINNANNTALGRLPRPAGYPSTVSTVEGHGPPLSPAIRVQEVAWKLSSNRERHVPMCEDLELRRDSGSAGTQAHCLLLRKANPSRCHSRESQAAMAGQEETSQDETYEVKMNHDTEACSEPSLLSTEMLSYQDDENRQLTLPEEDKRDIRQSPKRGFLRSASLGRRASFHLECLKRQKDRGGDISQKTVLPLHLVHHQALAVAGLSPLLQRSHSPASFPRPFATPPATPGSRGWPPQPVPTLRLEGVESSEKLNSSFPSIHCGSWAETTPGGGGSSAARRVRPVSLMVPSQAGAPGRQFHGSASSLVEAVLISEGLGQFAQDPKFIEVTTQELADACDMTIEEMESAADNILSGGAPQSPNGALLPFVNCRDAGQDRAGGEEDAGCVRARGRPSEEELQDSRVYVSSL
Sequence of UniProt Q9NPD5 (whole entry, looked up): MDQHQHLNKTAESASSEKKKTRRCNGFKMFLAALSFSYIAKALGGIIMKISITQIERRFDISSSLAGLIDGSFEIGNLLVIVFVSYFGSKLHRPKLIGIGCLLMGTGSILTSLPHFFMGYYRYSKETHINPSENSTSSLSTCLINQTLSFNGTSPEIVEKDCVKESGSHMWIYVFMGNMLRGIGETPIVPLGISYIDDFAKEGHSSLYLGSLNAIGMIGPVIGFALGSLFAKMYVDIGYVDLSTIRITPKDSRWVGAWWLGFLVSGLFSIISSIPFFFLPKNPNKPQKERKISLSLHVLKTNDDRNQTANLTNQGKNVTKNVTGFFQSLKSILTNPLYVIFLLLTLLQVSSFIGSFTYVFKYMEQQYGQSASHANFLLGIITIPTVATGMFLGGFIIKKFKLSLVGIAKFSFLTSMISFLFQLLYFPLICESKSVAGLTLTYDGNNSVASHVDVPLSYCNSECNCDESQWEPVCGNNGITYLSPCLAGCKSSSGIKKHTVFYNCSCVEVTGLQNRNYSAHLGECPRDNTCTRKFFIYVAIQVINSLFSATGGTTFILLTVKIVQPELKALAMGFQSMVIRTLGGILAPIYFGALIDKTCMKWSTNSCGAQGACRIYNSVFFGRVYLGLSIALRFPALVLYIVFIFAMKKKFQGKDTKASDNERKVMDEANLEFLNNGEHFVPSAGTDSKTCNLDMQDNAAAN
Sequence of UniProt Q9HC97 (whole entry, looked up): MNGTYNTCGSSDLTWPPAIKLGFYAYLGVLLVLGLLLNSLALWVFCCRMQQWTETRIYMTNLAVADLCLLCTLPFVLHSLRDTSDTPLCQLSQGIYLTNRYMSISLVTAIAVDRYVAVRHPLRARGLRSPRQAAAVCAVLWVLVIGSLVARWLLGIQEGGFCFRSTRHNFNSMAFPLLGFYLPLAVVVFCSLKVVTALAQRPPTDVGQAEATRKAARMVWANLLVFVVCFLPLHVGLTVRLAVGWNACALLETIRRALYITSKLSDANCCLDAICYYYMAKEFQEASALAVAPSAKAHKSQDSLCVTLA

For `Cc1ccc(CNC(=O)[C@H](CCCCNC(=O)OCc2ccccc2)NC(=O)[C@H](CC2CCCCC2)NC(=O)Cc2cccnc2)cc1`, the IC50 was over 100000 nM (Proteasome component C5/PSMB5 (Homo sapiens, UniProt P20618+P28074); β5 activity, inhibitor; with: Suc-LLVY-AMC, PA28α-activated).
For `Cn1cc(-c2cc(N3CCCN(CC(F)F)S3(=O)=O)ccc2Oc2ccc(F)cc2F)c2cc[nH]c2c1=O`, the IC50 was 9.39 nM (Bromodomain-containing protein 4, BD1 (BRD4, Homo sapiens, UniProt O60885); cell-free assay, TR-FRET).
`O=C(Oc1ccccc1)N1CCC(CCn2ccc3ccc(F)cc32)CC1` gave an IC50 of 23 nM (Faah (Rattus norvegicus, UniProt P97612); enzyme activity, inhibitor).
The IC50 of `O=C(NCCN1CCC(Cc2ccccc2)CC1)c1ccc2cc(Br)ccc2c1` is reported as 410 to 1730 nM (SLC6A3 (Homo sapiens, UniProt Q01959); transporter uptake, inhibitor, radiometric).
`COc1ccc(C(=O)/C=C(\O)C(F)(F)C(F)(F)F)cn1` gave an IC50 of 380 ± 20 nM (Formate-nitrite transporter (FNT, Plasmodium malariae, UniProt A0A1C3KYI2)).
For `CN1CCC2(CC1)C/C(=N\NC(=O)Nc1ccccc1)c1ccccc1O2`, the IC50 was 55 nM (ERBB2 (Homo sapiens, UniProt P04626); enzyme activity, inhibitor).
For `Cc1cc(N2CC[C@](C#N)(C3(C)CC3)C2=O)cc(C(=O)NCc2cc(F)cc(-c3cnn(C)c3)c2)n1`, the IC50 was 1770 nM (Proline--tRNA ligase (Plasmodium falciparum, UniProt Q8I5R7); enzyme activity, inhibitor, absorbance).
`N#Cc1c(C(F)(F)F)cc(-c2ccc(Cl)cc2)nc1SCC(=O)N1CCOCC1` gave an IC50 of 1120 nM (TAAR1 (Homo sapiens, UniProt Q96RJ0)).
For `CC(C)NC(=O)c1ccc2nc(-c3ccccc3)cn2c1`, the IC50 was 7000 nM (Protein ENL (MLLT1, Homo sapiens, UniProt Q03111)).
For `CSCC[C@H](NC(=O)[C@H](Cc1ccccc1)NC(=O)[C@H](CO)NC(=O)CNC(=O)[C@@H](NC(=O)[C@H](C)NC(=O)[C@H](Cc1c[nH]c2ccccc12)NC(=O)[C@H](CC(C)C)NC(=O)[C@@H]1CCC(=O)N1)C(C)C)C(N)=O`, the IC50 was over 1000 nM (GRPR (Homo sapiens, UniProt P30550); binding; HuTu80 and hGRPR-Balb 3T3).
`O=C(O)c1cc2cc(O)ccc2n1Cc1ccc(Cl)c(C(F)(F)F)c1` gave an IC50 of 12300 nM (ABCC4 (Homo sapiens, UniProt O15439); transporter uptake, inhibitor; HEK293; cell membranes).
With `COc1ccc([C@@H]2CC(=O)c3c(O)cc(O[C@@H]4O[C@H](CO[C@@H]5O[C@@H](C)[C@H](O)[C@@H](O)[C@H]5O)[C@@H](O)[C@H](O)[C@H]4O)cc3O2)cc1` the IC50 was over 100000 nM (SLCO1B3 (Homo sapiens, UniProt Q9NPD5); 8-FcA uptake, inhibitor, flow cytometry; HEK293 expressing SLCO1B3; 10 min, with: 8-FcA 2.5 µM).
`CNC(=O)C1CCN(c2ccccc2NC(=O)c2ccc(-c3cccc(O)c3)c(C)c2)CC1` gave an IC50 of 15600 nM (EPHA5 (Homo sapiens, UniProt P54756); target engagement in cells, BRET).
For `O=C(/C=C/c1ccc(O)c2oc(-c3ccc(O)c(O)c3)cc12)O[C@H](Cc1ccc(O)c(O)c1)C(=O)O`, the IC50 was 2030 nM (GPR35 (Homo sapiens, UniProt Q9HC97); DMR desensitization; HT-29; no detergent, with: zaprinast).
The IC50 of `CN(c1ccccc1)S(=O)(=O)c1cccc(C(=O)N2CCN(C(=O)Cc3ccc(F)cc3)CC2)c1` is reported as 2520 nM (CACNA1C (Homo sapiens, UniProt Q13936); calcium signal, fluorescence).

Some of these lines once more:
For `O=C(/C=C/c1ccc(O)c2oc(-c3ccc(O)c(O)c3)cc12)O[C@H](Cc1ccc(O)c(O)c1)C(=O)O`, the IC50 was 2030 nM (GPR35 (Homo sapiens, UniProt Q9HC97); DMR desensitization; HT-29; no detergent, with: zaprinast).
For `CSCC[C@H](NC(=O)[C@H](Cc1ccccc1)NC(=O)[C@H](CO)NC(=O)CNC(=O)[C@@H](NC(=O)[C@H](C)NC(=O)[C@H](Cc1c[nH]c2ccccc12)NC(=O)[C@H](CC(C)C)NC(=O)[C@@H]1CCC(=O)N1)C(C)C)C(N)=O`, the IC50 was over 1000 nM (GRPR (Homo sapiens, UniProt P30550); binding; HuTu80 and hGRPR-Balb 3T3).
